Experimental data gathered from unrelated publications.
± gives the spread as reported.

`CCOC(=O)CNC(=O)CN1CCN(CC(=O)NCC(=O)OCC)CCN(CC(=O)NCC(=O)OCC)CCN(CC(=O)NCC(=O)OCC)CC1.[177Lu+3]` has a tissue uptake of 0.039 ± 0.007 % injected dose/g (Sprague-Dawley rat, blood; intravenous (tail vein), dose not given, 2 h).
For `CN(CCCO)Cc1ccc(-c2noc(-c3ccc(OCC[18F])c(C(F)(F)F)c3)n2)cc1F`, the tissue uptake was 1.41 ± 0.1 %ID/g (Sprague-Dawley rats, male, heart; 5 min post-injection).
`O=C(O)CCCOc1ccc([18F])cc1-c1cc(-c2ccccc2C(F)(F)F)n(-c2ccccc2)n1` gave a tissue uptake of 2.7 ± 0.43 %ID/g (mouse, muscle; intravenous, dose not given, 60 min).
`COc1cccc(OC)c1-c1cc(C(=O)NC2(C(=O)O)C3CC4CC(C3)CC2C4)nn1-c1ccc(C(=O)N(C)CCOCCOCCN(C)C(=O)[C@H](CCCCNC(=O)[C@H](CC(C)C)NC(=O)C2OC2C(=O)O)NC(=O)CN2CCN(CC(=O)[O-])CCN(CC(=O)[O-])CCN(CC(=O)[O-])CC2)cc1C(C)C.[177Lu+3]` (mixture of isomers) gave a tissue uptake of 0.08 %ID/g (mouse, HT-29 xenograft, heart; 72 h post injection).
`CCCC[C@H](NC(=O)CCCCCCCNC(=O)CN1CCN(CC(=O)O)CCN(CC(=O)O)CC1)C(=O)N[C@H]1CC(=O)NCCCC[C@@H](C(N)=O)NC(=O)[C@H](Cc2c[nH]c3ccccc23)NC(=O)[C@H](CCCNC(=N)N)NC(=O)[C@@H](Cc2ccccc2)NC(=O)[C@H](Cc2c[nH]cn2)NC1=O` [fluorine-18 labelled] has a tissue uptake of 0.35 ± 0.29 %ID/g (C57 mice B16-F10 melanoma, spleen; intravenous, 0.37 MBq, 1 h).
The tissue uptake of `COc1cccc(OC)c1-c1cc(C(=O)NC2(C(=O)O)C3CC4CC(C3)CC2C4)nn1-c1ccc(C(=O)N(C)CCCN(C)C(=O)[C@H](CCCCNC(=O)[C@H](CC(C)C)NC(=O)C2OC2C(=O)O)NC(=O)CN2CCN(CC(=O)[O-])CCN(CC(=O)[O-])CCN(CC(=O)[O-])CC2)cc1C(C)C.[177Lu+3]` (mixture of isomers) is reported as 0.14 %ID/g (mouse, HT-29 xenograft, heart; 24 h post injection).
`CC(C(=O)O)n1nc(Cn2cc3cc(OCC[18F])c(Cl)cc3n2)c2ccccc2c1=O` (racemic) has a tissue uptake of 0.06 ± 0.03 %ID/g (Sprague-Dawley rat male, pancreas; 60 min).
`O=C(CN1CCN(CC(=O)NCc2ncccc2O)CCN(CC(=O)NCc2ncccc2O)CCN(CC(=O)NCc2ncccc2O)CC1)NCc1ncccc1O.[177Lu+3]` gave a tissue uptake of 0.354 ± 0.088 % injected dose/g (Sprague-Dawley rat, liver; intravenous (tail vein), dose not given, 2 h).
For `COc1cccc(OC)c1-c1cc(C(=O)NC2(C(=O)O)C3CC4CC(C3)CC2C4)nn1-c1ccc(C(=O)N(C)CCCN(C)CCCN(C)C(=O)[C@H](CCCCNC(=O)[C@H](CC(C)C)NC(=O)C2OC2C(=O)O)NC(=O)CN2CCN(CC(=O)[O-])CCN(CC(=O)[O-])CCN(CC(=O)[O-])CC2)cc1C(C)C.[177Lu+3]` (mixture of isomers), the tissue uptake was 7.3 %ID/g (mouse, HT-29 xenograft, HT-29 tumour; 72 h post injection).

Some of these lines once more:
`COc1cccc(OC)c1-c1cc(C(=O)NC2(C(=O)O)C3CC4CC(C3)CC2C4)nn1-c1ccc(C(=O)N(C)CCOCCOCCN(C)C(=O)[C@H](CCCCNC(=O)[C@H](CC(C)C)NC(=O)C2OC2C(=O)O)NC(=O)CN2CCN(CC(=O)[O-])CCN(CC(=O)[O-])CCN(CC(=O)[O-])CC2)cc1C(C)C.[177Lu+3]` (mixture of isomers) gave a tissue uptake of 0.08 %ID/g (mouse, HT-29 xenograft, heart; 72 h post injection).
